Experimental data from different studies.
Parts stem from different laboratories: compare values within a part only.

Block 1
Target: Histone acetyltransferase KAT6A, winged helix 1, GST fusion (KAT6A, Homo sapiens, UniProt Q92794, residues 1-85)
Technique: protein binding microarray
Form: double-stranded DNA, one strand shown
Sample: in vitro
Concentration: not given
Notes: 8-mer, flanks averaged, mean of 2 arrays, mostly near background
Reference: not given
Reading: higher = stronger binding
Target sequence (chain): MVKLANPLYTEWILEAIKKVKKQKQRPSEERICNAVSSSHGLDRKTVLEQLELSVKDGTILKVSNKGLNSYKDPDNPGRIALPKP
| Strand | E-score |
| --- | --- |
| CCGTGCGC | 0.414 |
| AGCTCGAT | -0.178 |
| GCTCCCAA | -0.233 |
| AATTAAGG | -0.0919 |

Block 2
Target: Prothrombin, mature alpha-thrombin (F2, Homo sapiens, UniProt P00734)
Technique: aptamer microarray, sandwich
Form: DNA with 2'F-ANA
Sample: in vitro
Concentration: 200 nM
Notes: whole 15-mer aptamer, many near background
Added: Cy3 exosite-II aptamer, 400 nM
Reading: higher = stronger binding
| Strand | mean fluorescence intensity [a.u.] |
| --- | --- |
| GGTTGGTGTGGTTGG (2'F-ANA at 1 3 4 5 6 8 11 14 15) | 51.4 |
| GGTTGGTGTGGTTGG (2'F-ANA at 2 3 4 5 6 7 8 9 10 11 14) | 54.9 |
| GGTTGGTGTGGTTGG (2'F-ANA at 4 5 6 7 9 10 11 15) | 47.7 |

Block 3
Target: Centromere-binding protein 1, full length, N-terminal tag (CBF1, Saccharomyces cerevisiae, UniProt P17106, residues 1-351)
Chain of UniProt P17106 (whole entry, looked up): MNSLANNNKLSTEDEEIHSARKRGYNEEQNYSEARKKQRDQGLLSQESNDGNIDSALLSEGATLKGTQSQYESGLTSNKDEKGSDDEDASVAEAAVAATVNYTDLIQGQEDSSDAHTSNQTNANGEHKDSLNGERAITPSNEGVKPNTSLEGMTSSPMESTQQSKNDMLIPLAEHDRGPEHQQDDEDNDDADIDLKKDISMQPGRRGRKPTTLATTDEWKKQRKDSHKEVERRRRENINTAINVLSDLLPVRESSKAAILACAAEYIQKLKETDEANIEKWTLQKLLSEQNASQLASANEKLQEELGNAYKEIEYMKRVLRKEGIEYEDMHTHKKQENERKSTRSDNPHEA
Technique: protein-binding microarray
Form: double-stranded DNA, one strand shown
Sample: in vitro
Concentration: 0.8 µM
Notes: whole 60-bp probe, no competitor
Reading: higher = stronger binding
| Strand | fluorescence intensity |
| --- | --- |
| GAAAACGATGGACGTGGTGTGTGAATGTGCTACTAGGTCTTGATTCGCTTGACGCTGCTG | 511 a.u. |
| GAAACACGCTTTGGGGACATCATGTATAACAGCTAGGTCTTGATTCGCTTGACGCTGCTG | 510 a.u. |
| TGTACGAAGCTATAGCACGATTGTATAGTAGTTAGGGTCTTGATTCGCTTGACGCTGCTG | 523 a.u. |
| CTATGGAGGTCTACACACGTTAATAGTCTCAAATTCGTCTTGATTCGCTTGACGCTGCTG | 532 a.u. |

Single results of other studies
| Substance | target | assay | test system | setting | scale | measurement | value |
| --- | --- | --- | --- | --- | --- | --- | --- |
| PhoQ, residues 284 288 289 292 302 303 ALASRC | PhoP, residues 12 14 15 18 19 LHTVM (Escherichia coli, UniProt P23836) | Sort-seq, refers to: YFP reporter | E. coli | PhoQ-PhoP variant library, added: 10 µM Mg2+ | reference: high Mg2+ state, higher = stronger signaling | fold induction | 10.8 |

A few entries again (block 3):
| Strand | fluorescence intensity |
| --- | --- |
| GAAACACGCTTTGGGGACATCATGTATAACAGCTAGGTCTTGATTCGCTTGACGCTGCTG | 510 a.u. |
| TGTACGAAGCTATAGCACGATTGTATAGTAGTTAGGGTCTTGATTCGCTTGACGCTGCTG | 523 a.u. |
